{"data": "Measurements from different studies", "DCN1-like protein 1": "DCN1-like protein 1 (Homo sapiens, UniProt Q96GG9)", "GLP1R": "Glucagon-like peptide 1 receptor (GLP1R, Homo sapiens, UniProt P43220)", "note": "Each line is one published result; not all experiments were run side by side. ± marks the error that the study gave.", "sequence of UniProt Q96GG9 (whole entry, looked up)": "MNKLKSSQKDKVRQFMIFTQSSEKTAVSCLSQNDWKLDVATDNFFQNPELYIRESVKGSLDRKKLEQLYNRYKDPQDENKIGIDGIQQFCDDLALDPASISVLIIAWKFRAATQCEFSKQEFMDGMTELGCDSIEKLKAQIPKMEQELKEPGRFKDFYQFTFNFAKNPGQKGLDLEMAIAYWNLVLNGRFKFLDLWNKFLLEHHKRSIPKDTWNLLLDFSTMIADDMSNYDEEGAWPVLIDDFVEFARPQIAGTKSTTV", "sequence of UniProt Q9Y5S2 (whole entry, looked up)": "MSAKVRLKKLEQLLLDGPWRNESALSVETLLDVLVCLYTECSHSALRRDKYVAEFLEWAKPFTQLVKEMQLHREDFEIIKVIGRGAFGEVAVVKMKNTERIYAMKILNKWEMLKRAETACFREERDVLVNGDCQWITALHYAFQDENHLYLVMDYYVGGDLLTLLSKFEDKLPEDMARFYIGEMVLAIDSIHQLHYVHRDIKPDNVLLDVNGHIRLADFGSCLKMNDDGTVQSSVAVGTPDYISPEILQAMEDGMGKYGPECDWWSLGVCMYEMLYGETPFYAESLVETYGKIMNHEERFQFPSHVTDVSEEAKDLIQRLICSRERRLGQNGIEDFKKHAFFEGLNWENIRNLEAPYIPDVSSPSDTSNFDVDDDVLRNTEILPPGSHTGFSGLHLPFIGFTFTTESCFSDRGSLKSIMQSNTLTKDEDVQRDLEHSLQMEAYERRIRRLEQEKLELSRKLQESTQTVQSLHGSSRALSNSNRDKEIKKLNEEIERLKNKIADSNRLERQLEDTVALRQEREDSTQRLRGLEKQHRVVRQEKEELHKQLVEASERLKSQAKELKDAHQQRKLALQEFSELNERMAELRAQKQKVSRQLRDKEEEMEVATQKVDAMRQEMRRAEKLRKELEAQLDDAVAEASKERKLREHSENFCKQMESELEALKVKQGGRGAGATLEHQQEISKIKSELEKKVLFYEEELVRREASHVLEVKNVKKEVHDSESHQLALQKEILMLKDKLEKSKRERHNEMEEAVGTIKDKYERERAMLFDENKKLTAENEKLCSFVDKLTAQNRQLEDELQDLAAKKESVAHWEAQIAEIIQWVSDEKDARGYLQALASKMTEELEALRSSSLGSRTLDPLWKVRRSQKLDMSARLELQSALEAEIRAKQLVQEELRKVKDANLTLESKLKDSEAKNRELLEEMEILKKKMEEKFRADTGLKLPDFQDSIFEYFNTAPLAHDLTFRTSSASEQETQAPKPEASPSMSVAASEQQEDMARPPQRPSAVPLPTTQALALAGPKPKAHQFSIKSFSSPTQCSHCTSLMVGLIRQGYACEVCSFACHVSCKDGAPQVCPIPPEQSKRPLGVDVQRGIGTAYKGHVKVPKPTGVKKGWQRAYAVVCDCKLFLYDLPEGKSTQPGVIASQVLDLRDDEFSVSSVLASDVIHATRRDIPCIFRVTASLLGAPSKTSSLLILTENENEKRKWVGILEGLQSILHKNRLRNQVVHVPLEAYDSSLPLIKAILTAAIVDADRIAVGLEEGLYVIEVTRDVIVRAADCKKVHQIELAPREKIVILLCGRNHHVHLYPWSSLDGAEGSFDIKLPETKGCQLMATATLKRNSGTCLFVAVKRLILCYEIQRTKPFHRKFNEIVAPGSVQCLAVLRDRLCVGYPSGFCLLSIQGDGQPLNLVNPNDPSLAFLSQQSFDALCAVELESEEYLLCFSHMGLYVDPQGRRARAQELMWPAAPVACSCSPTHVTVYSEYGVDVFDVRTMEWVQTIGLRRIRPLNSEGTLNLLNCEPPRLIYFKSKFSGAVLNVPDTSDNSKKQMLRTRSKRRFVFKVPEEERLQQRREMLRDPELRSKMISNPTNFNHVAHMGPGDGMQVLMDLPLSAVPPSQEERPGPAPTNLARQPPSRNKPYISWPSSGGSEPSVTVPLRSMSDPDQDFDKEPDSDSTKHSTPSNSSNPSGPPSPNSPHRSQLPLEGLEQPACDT", "sequence of UniProt Q13310 (whole entry, looked up)": "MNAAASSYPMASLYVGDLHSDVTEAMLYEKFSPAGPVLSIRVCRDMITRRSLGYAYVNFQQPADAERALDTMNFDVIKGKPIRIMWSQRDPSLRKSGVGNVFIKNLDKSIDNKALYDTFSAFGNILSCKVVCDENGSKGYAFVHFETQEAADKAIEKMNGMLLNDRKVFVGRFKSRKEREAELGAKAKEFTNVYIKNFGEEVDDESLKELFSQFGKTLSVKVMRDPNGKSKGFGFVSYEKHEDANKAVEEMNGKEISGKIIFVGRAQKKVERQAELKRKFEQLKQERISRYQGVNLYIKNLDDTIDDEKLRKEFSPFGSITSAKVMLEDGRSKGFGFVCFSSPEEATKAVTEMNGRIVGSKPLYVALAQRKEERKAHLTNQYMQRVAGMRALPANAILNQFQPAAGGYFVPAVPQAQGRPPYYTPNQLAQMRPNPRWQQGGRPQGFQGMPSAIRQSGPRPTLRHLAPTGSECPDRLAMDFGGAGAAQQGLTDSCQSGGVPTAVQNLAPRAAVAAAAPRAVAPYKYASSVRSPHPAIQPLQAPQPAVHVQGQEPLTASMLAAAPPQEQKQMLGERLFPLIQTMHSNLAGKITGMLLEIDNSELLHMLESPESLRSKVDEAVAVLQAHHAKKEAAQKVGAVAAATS", "sequence of UniProt P42892 (whole entry, looked up)": "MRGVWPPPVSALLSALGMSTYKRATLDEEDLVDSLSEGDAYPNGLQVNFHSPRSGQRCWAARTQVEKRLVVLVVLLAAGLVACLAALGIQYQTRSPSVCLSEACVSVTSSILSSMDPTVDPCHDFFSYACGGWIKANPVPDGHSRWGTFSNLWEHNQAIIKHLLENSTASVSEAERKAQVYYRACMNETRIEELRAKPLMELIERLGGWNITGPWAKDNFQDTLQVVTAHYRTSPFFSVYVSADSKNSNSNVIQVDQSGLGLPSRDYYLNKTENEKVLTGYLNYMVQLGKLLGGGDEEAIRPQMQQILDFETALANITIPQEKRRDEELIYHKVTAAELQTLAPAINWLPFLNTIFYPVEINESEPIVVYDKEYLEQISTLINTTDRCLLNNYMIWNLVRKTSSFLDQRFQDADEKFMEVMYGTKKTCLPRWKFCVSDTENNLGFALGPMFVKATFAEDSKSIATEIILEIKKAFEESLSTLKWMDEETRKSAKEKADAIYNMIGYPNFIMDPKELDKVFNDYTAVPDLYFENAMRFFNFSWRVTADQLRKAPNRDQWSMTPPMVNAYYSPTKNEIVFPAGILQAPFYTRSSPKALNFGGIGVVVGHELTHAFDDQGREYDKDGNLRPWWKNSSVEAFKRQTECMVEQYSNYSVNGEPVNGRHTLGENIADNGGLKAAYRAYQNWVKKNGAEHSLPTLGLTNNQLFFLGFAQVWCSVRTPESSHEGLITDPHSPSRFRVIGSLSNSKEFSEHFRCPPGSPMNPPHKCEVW", "sequence of UniProt P28335 (whole entry, looked up)": "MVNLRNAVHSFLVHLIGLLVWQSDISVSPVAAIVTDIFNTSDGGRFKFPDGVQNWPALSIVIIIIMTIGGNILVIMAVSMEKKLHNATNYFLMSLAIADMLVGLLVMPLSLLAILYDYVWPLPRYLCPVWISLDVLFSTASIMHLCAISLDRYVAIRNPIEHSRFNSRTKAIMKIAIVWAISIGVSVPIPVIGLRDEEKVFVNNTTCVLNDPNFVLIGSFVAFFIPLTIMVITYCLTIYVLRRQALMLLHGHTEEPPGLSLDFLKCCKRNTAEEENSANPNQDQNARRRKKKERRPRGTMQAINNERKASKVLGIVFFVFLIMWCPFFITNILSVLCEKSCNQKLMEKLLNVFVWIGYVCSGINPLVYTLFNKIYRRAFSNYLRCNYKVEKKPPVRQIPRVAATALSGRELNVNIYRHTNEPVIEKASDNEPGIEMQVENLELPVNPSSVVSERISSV"}
{"Compound": "COc1cc2c(Oc3ccc4[nH]c(C)cc4c3F)ccnc2cc1OCC1(N)CC1", "system": "paediatric refractory sarcoma patients", "conditions": "10 mg", "measurement": "sinus bradycardia incidence", "result": "25%"}
{"Compound": "CO[C@H]1C[C@@H]2CC[C@@H](C)[C@@](O)(O2)C(=O)C(=O)N2CCCC[C@H]2C(=O)O[C@H]([C@H](C)C[C@@H]2CC[C@@H](OC(=O)NCCOCCOCCOCCOCCOCCOCCOCCOCCC(=O)N3CCc4cc(Cn5nc(-c6ccc7oc(N)nc7c6)c6c(N)ncnc65)ccc4C3)[C@H](OC)C2)C[C@@H](O)[C@H](C)/C=C(\\C)[C@@H](O)[C@@H](OC)C(=O)[C@H](C)C[C@H](C)/C=C/C=C/C=C/1C", "system": "patients with advanced solid tumours", "conditions": "intravenous, 10 mg weekly, any grade", "measurement": "mucositis incidence", "result": "62.5%"}
{"Compound": "N[C@@H](CS)C(=O)O", "target or system": "SclA protein (Enterococcus faecalis, UniProt Q831E3, H100N)", "measurement": "Ki", "result": "570 ± 60 µM"}
{"Compound": "CC[C@H](C)[C@H](NC(=O)[C@H](Cc1ccccc1)NC(=O)[C@H](CCC(=O)O)NC(=O)[C@H](CCCNC(=N)N)NC(=O)[C@H](C)NC(=O)[C@H](C)NC(=O)[C@H](CCC(N)=O)NC(=O)[C@H](CCC(=O)O)NC(=O)[C@H](CCC(=O)O)NC(=O)[C@H](CC(C)C)NC(=O)[C@H](Cc1ccc(O)cc1)NC(=O)[C@H](CO)NC(=O)[C@H](CO)NC(=O)[C@@H](NC(=O)[C@H](CC(=O)O)NC(=O)[C@H](CO)NC(=O)[C@@H](NC(=O)[C@H](Cc1ccccc1)NC(=O)[C@@H](NC(=O)CNC(=O)[C@H](CCC(=O)O)NC(=O)[C@H](C)NC(=O)CCc1c[nH]cn1)[C@@H](C)O)[C@@H](C)O)C(C)C)C(=O)N[C@@H](C)C(=O)N[C@@H](Cc1c[nH]c2ccccc12)C(=O)N[C@@H](CC(C)C)C(=O)N[C@H](C(=O)N[C@@H](CCCNC(=N)N)C(=O)NCC(=O)N[C@@H](CCCNC(=N)N)C(=O)N[C@@H](CCCCNC(=O)COCCOCCNC(=O)COCCOCCNC(=O)CC[C@H](NC(=O)CCCCCCCCCCCCCCCCC(=O)O)C(=O)O)C(=O)NCC(=O)NCC(=O)N[C@@H](CO)C(=O)N[C@@H](CCCCNc1c(NCCCCCN(O)C(=O)CCC(=O)NCCCCCN(O)C(=O)CCC(=O)NCCCCCN(O)C(C)=O)c(=O)c1=O)C(=O)O)C(C)C [zirconium-89 labelled]", "test": "ex vivo gamma counting", "system": "rat, muscle", "conditions": "subcutaneous, 3 nmol/kg, 72 h, together with: [89Zr]-labelled peptide", "measurement": "tissue uptake", "result": "0.08 %ID/g"}
{"Compound": "CC[C@H](C)[C@@H]1NC(=O)[C@@H]2CCCN2C(=O)[C@H](CC(C)C)NC(=O)[C@H](CC(C)C)NC(=O)CNC(=O)[C@@H](NC(=O)[C@@H](NC(=O)[C@H](CC(=O)O)NC(=O)CNC(=O)[C@@H](NC(=O)[C@H](C)NC(=O)CNC(=O)[C@H](CCCCN)NC(=O)[C@H](CC(C)C)NC(=O)[C@H](CC(C)C)NC(=O)[C@H](CCCCN)NC(=O)CNC(=O)[C@@H](NC(=O)[C@@H](N)CC(C)C)C(C)C)C(C)C)C(C)C)CSSC[C@@H](C(=O)O)NC1=O", "test": "RNA-seq, item: Gpr132", "system": "mouse, traumatic brain injury model, frontal cortex and hippocampus", "conditions": "dose not given", "how to read": "baseline: TBI alone", "measurement": "log2 fold change", "result": -2.87}
{"Compound": "C[C@H]1CN(c2n[nH]c3nc(N[C@H]4CC[C@H](NS(=O)(=O)CCC(F)(F)F)CC4)ncc23)CCO1", "target or system": "Polyadenylate-binding protein 4 (Homo sapiens, UniProt Q13310)", "test": "biochemical", "measurement": "IC50", "result": "≥ 20 µM"}
{"Compound": "COc1ccc(N=Nc2ccc3[nH]cc(CCN(C)C)c3c2)cc1", "target or system": "HTR2C (Homo sapiens, UniProt P28335)", "test": "binding, radioligand binding", "conditions": "ambient light", "measurement": "Ki", "result": "0.348 µM"}
{"Compound": "Cc1ccc(-n2nc(C)c3c2NC(=O)[C@@H](NC(=O)c2cccc(C(F)(F)F)c2)[C@H]3c2ccc(F)cc2)cc1", "target or system": "DCN1-like protein 1", "measurement": "IC50", "result": "> 15 µM"}
{"Compound": "CC[C@H](C)[C@H](NC(=O)[C@H](Cc1ccccc1)NC(=O)[C@H](CCC(=O)O)NC(=O)[C@H](CCCNC(=N)N)NC(=O)[C@H](C)NC(=O)[C@H](C)NC(=O)[C@H](CCC(N)=O)NC(=O)[C@H](CCC(=O)O)NC(=O)[C@H](CCC(=O)O)NC(=O)[C@H](CC(C)C)NC(=O)[C@H](Cc1ccc(O)cc1)NC(=O)[C@H](CO)NC(=O)[C@H](CO)NC(=O)[C@H](CCCCNc1c(NCCCCCN(O)C(=O)CCC(=O)NCCCCCN(O)C(=O)CCC(=O)NCCCCCN(O)C(C)=O)c(=O)c1=O)NC(=O)[C@H](CC(=O)O)NC(=O)[C@H](CO)NC(=O)[C@@H](NC(=O)[C@H](Cc1ccccc1)NC(=O)[C@@H](NC(=O)CNC(=O)[C@H](CCC(=O)O)NC(=O)[C@H](C)NC(=O)CCc1cnc[nH]1)[C@@H](C)O)[C@@H](C)O)C(=O)N[C@@H](C)C(=O)N[C@@H](Cc1c[nH]c2ccccc12)C(=O)N[C@@H](CC(C)C)C(=O)N[C@H](C(=O)N[C@@H](CCCNC(=N)N)C(=O)NCC(=O)N[C@@H](CCCNC(=N)N)C(=O)N[C@@H](CCCCNC(=O)COCCOCCNC(=O)COCCOCCNC(=O)CC[C@H](NC(=O)CCCCCCCCCCCCCCCCC(=O)O)C(=O)O)C(=O)NCC(=O)NCC(=O)N[C@@H](CO)C(=O)N[C@@H](CCCCNc1c(NCCCCCN(O)C(=O)CCC(=O)NCCCCCN(O)C(=O)CCC(=O)NCCCCCN(O)C(C)=O)c(=O)c1=O)C(=O)O)C(C)C", "target or system": "GLP1R", "test": "cAMP reporter gene, agonist, CRE luciferase", "system": "BHK", "conditions": "without Zr, 1% HSA", "measurement": "EC50", "result": "0.00081 µM"}
{"Compound": "Nc1nc2c(ncn2[C@@H]2O[C@@H]3COP(=O)(O)O[C@H]4[C@@H](O)[C@H](n5cnc6c(=O)[nH]c(N)nc65)O[C@@H]4COP(=O)(O)O[C@H]3[C@H]2O)c(=O)[nH]1", "target or system": "Cell cycle histidine kinase CckA, CA domain (Caulobacter vibrioides, UniProt Q9X688)", "test": "isothermal titration calorimetry", "system": "Caulobacter crescentus", "conditions": "12 °C, together with: AMPPNP 5 mM", "measurement": "Kd", "result": "25 µM"}
{"Compound": "COc1ccc(N2C(=O)N(c3c(C)cccc3Cl)Cc3cnc(Nc4ccc(C5CCN(C)CC5)cc4OC)nc32)nc1", "target or system": "CDC42BPB (Homo sapiens, UniProt Q9Y5S2)", "test": "kinase activity, inhibitor", "conditions": "0.5 µM, kinase MRCK-BETA", "measurement": "inhibition", "result": "2.56%"}
{"Compound": "CC[C@H](C)[C@H](NC(=O)[C@H](Cc1ccccc1)NC(=O)[C@H](CCC(=O)O)NC(=O)[C@H](CCCNC(=N)N)NC(=O)[C@H](C)NC(=O)[C@H](C)NC(=O)[C@H](CCC(N)=O)NC(=O)[C@H](CCC(=O)O)NC(=O)[C@H](CCC(=O)O)NC(=O)[C@H](CC(C)C)NC(=O)[C@H](Cc1ccc(O)cc1)NC(=O)[C@H](CO)NC(=O)[C@H](CO)NC(=O)[C@@H](NC(=O)[C@H](CC(=O)O)NC(=O)[C@H](CO)NC(=O)[C@@H](NC(=O)[C@H](Cc1ccccc1)NC(=O)[C@@H](NC(=O)CNC(=O)[C@H](CCC(=O)O)NC(=O)[C@H](C)NC(=O)CCc1cnc[nH]1)[C@@H](C)O)[C@@H](C)O)C(C)C)C(=O)N[C@@H](C)C(=O)N[C@@H](Cc1c[nH]c2ccccc12)C(=O)N[C@@H](CC(C)C)C(=O)N[C@H](C(=O)N[C@@H](CCCCNC(=O)COCCOCCNC(=O)COCCOCCNC(=O)CC[C@H](NC(=O)CCCCCCCCCCCCCCCCC(=O)O)C(=O)O)C(=O)NCC(=O)N[C@@H](CCCNC(=N)N)C(=O)N[C@@H](CCCCNc1c(NCCCCCN(O)C(=O)CCC(=O)NCCCCCN(O)C(=O)CCC(=O)NCCCCCN(O)C(C)=O)c(=O)c1=O)C(=O)NCC(=O)NCC(=O)N[C@@H](CO)C(=O)N[C@@H](CCCCNc1c(NCCCCCN(O)C(=O)CCC(=O)NCCCCCN(O)C(=O)CCC(=O)NCCCCCN(O)C(C)=O)c(=O)c1=O)C(=O)O)C(C)C", "target or system": "GLP1R", "test": "cAMP reporter gene, agonist, CRE luciferase", "system": "BHK", "conditions": "with Zr, 1% HSA", "measurement": "EC50", "result": "0.00015 µM"}
{"Compound": "CCN1C(=O)[C@@H](NC(=O)c2cc(C(F)(F)F)ccn2)[C@@H](c2ccc(F)cc2)c2c(C)nn(-c3ccccc3)c21", "target or system": "DCN1-like protein 1", "measurement": "IC50", "result": "> 15 µM"}
{"Compound": "CC[C@H](C)[C@H](NC(=O)[C@H](Cc1ccccc1)NC(=O)[C@H](CCC(=O)O)NC(=O)[C@H](CCCNC(=N)N)NC(=O)[C@H](C)NC(=O)[C@H](C)NC(=O)[C@H](CCC(N)=O)NC(=O)[C@H](CCC(=O)O)NC(=O)[C@H](CCC(=O)O)NC(=O)[C@H](CC(C)C)NC(=O)[C@H](Cc1ccc(O)cc1)NC(=O)[C@H](CO)NC(=O)[C@H](CO)NC(=O)[C@@H](NC(=O)[C@H](CC(=O)O)NC(=O)[C@H](CO)NC(=O)[C@@H](NC(=O)[C@H](Cc1ccccc1)NC(=O)[C@@H](NC(=O)CNC(=O)[C@H](CCC(=O)O)NC(=O)[C@H](C)NC(=O)CCc1cnc[nH]1)[C@@H](C)O)[C@@H](C)O)C(C)C)C(=O)N[C@@H](C)C(=O)N[C@@H](Cc1c[nH]c2ccccc12)C(=O)N[C@@H](CC(C)C)C(=O)N[C@H](C(=O)N[C@@H](CCCNC(=N)N)C(=O)NCC(=O)N[C@@H](CCCNC(=N)N)C(=O)N[C@@H](CCCCNC(=O)COCCOCCNC(=O)COCCOCCNC(=O)CC[C@H](NC(=O)CCCCCCCCCCCCCCCCC(=O)O)C(=O)O)C(=O)NCC(=O)NCC(=O)N[C@@H](CO)C(=O)N[C@@H](CCSC)C(=O)N[C@H](C(=O)N[C@@H](CCCCNc1c(NCCCCCN(O)C(=O)CCC(=O)NCCCCCN(O)C(=O)CCC(=O)NCCCCCN(O)C(C)=O)c(=O)c1=O)C(=O)O)C(C)C)C(C)C", "target or system": "GLP1R", "test": "cAMP reporter gene, agonist, CRE luciferase", "system": "BHK", "conditions": "without Zr, 1% HSA", "measurement": "EC50", "result": "0.00016 µM"}
{"Compound": "COc1cc(Nc2ncc(F)c(Nc3ccc4c(n3)NC(=O)C(C)(C)O4)n2)cc(OC)c1OC", "target or system": "ECE1 (Homo sapiens, UniProt P42892)", "test": "enzyme activity, inhibitor", "measurement": "IC50", "result": "> 10 µM"}
{"note": "Excerpt of the above:"}
{"Compound": "CO[C@H]1C[C@@H]2CC[C@@H](C)[C@@](O)(O2)C(=O)C(=O)N2CCCC[C@H]2C(=O)O[C@H]([C@H](C)C[C@@H]2CC[C@@H](OC(=O)NCCOCCOCCOCCOCCOCCOCCOCCOCCC(=O)N3CCc4cc(Cn5nc(-c6ccc7oc(N)nc7c6)c6c(N)ncnc65)ccc4C3)[C@H](OC)C2)C[C@@H](O)[C@H](C)/C=C(\\C)[C@@H](O)[C@@H](OC)C(=O)[C@H](C)C[C@H](C)/C=C/C=C/C=C/1C", "system": "patients with advanced solid tumours", "conditions": "intravenous, 10 mg weekly, any grade", "measurement": "mucositis incidence", "result": "62.5%"}
